Measured values from different studies.
Each numbered part is a random draw from the data of one study; scales do not carry over between parts. Substitutions count along the parent as printed.

Block 1
Target: RNA binding protein fox-1 homolog 2, RRM domain, GST-SBP tag (RBFOX2, Homo sapiens, UniProt O43251-10, residues 100-194)
Method: RNA Bind-n-Seq
Form: RNA
Medium: in vitro
Tested at: 365 nM
Setting: natural RNA segment, single round, ends assumed
Reference: no-protein control
Reading: higher = stronger binding
All sequences stand within: GGGAGUUCUACAGUCCGACGAUC … UGGAAUUCUCGGGUGCCAA
Residues (chain): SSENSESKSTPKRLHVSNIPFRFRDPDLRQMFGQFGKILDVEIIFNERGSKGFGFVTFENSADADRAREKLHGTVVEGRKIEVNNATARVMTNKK
`GCUCUGGUGUGAGUCACUUACCUAGCUUAUGUCAGGCCCCUAAAAGUAAUGCAUAAACUGUCAGAAUCGGGACCUUAUCGUUGAGGUGAAAAGAACCAAGGCCCGUAGGA` — result for “RBNS enrichment (R)”: 0.352.
`CGGCGGACCUGCAGAUGACCUGGAGUUCCUGAUUCAGGUCCCUGUCUGCAGCCCGGGCUGCCUGGGCCACAGCCUGCCAGUGUGGGCAGUGUGACGAAAGGCGGCCUGUA`: “RBNS enrichment (R)” 0.291.
`CAAGCUGAAACACCACUGCAUCCGCGUGGCCUUAUGACCUCCUUGCCCACUCACAGAGGCUGGAGGCAGCGACACUGGAACGGAGAAGAGAGAUCUGCAUGAGGGUGAGA`: “RBNS enrichment (R)” 8.23.
For `CUGUGUCCUUUGCGUUCCUCGUUUAAGCAAAAGAAGUUAGUAGCUAAUUCUAUCACGAAUGUUCUUGUCUGUGUACAGUUUUUAGAACAUUACAAAGGAUUUGUUUGCUU`, “RBNS enrichment (R)” read 0.257.
Under “RBNS enrichment (R)”, `GGGAAGAGUGGGAAGGCCUGAGUGUGUGCAGCCUCCUCCUCUGCCCACCCAAUCCAGCCAGUUCCCUUCAGGGAGGUUGGUGUGACCUGCUGUAGGUUCACCUUUUAGGC` is recorded as 0.406.
For `AACAUUUUUGUUCUUAUGGGGUGAGAAUAUAGACAGUGCCCUUGGUGCGAGGGAAGCAAUUGAAAAGGAACUUGCCCUGAGCACUCCUGGUGCAGGUCUCCACCUGCACA`, “RBNS enrichment (R)” read 0.522.
`UACAUUUUUGCACUGAAAUCUAAAGAUGUUUUAAAAAACACUUUUCACAAAAAUAGUCCUUUGUCAUUACAUUAUUUACUCAUGUGUUUGUACAUUUUUGUAUGUUAAUU` — result for “RBNS enrichment (R)”: 0.455.
`AAGGAGACAGUGACAAUGGGCAGUGGAUAGCCCUCACUCGUGAGUGUUUAAUGUUGCAGCAAACUCACCAAGAAGGAGACAAAUGGCUGUUUCGAAUGGAAGCUUUCUCA` — result for “RBNS enrichment (R)”: 0.545.

Block 2
Target: CCND3, cyclin fold, Cln2 fusion (human)
Method: yeast growth competition, sequencing
Medium: yeast
Setting: weak parent motif
Reference: not given
Reading: higher = stronger binding
Parent: CDC42EP1 docking peptide (human); SLVVGKLSFDSSP; partner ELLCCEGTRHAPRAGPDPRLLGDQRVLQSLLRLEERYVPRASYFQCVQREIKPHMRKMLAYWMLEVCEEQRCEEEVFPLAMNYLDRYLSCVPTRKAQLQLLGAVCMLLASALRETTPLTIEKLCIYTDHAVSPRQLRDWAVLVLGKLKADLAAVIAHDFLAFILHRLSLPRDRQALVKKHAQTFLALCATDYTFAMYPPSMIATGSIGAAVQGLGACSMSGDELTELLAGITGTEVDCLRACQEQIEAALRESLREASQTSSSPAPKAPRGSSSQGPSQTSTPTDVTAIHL
`S11A` — result for “normalised enrichment score”: -0.274.
`L7A`: “normalised enrichment score” -0.0447.
For `L2A`, “normalised enrichment score” read -0.242.
`V4A` — result for “normalised enrichment score”: -0.217.
For `F9A`, “normalised enrichment score” read -0.22.
`D10A`: “normalised enrichment score” -0.0792.
`S8A` — result for “normalised enrichment score”: -0.293.

Block 3
Target: JUN, bZIP domain (human)
Method: DHFR protein complementation
Medium: yeast
Setting: single substitutions, most at no-binding floor
Reference: wild-type JUN-FOS pair
Reading: higher = stronger binding
Parent: JUN, bZIP domain (human); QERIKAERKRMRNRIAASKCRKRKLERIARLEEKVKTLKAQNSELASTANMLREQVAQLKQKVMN; partner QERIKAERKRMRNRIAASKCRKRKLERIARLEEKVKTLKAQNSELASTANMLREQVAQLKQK
With `N42G` the binding fitness was -0.59 natural log.
`T37V` gave a binding fitness of -0.177 natural log.
For `R53V`, the binding fitness was -0.906 natural log.
For `Q58V`, the binding fitness was -0.38 natural log.
The binding fitness of `R30V` is reported as -0.0948 natural log.
`M51W` has a binding fitness of -0.42 natural log.
The binding fitness of `K34F` is reported as -0.473 natural log.
For `A29G`, the binding fitness was -0.491 natural log.
With `R30Y` the binding fitness was -0.25 natural log.
With `L31Y` the binding fitness was -1.19 natural log.
With `A46I` the binding fitness was -0.124 natural log.
The binding fitness of `T48L` is reported as -0.199 natural log.
For `A29Q`, the binding fitness was -0.326 natural log.
With `R53C` the binding fitness was -0.994 natural log.
`M51H` gave a binding fitness of -0.235 natural log.
For `E54G`, the binding fitness was -0.41 natural log.
With `M51A` the binding fitness was -0.063 natural log.
For `L52W`, the binding fitness was -1.06 natural log.
The binding fitness of `I28C` is reported as -0.603 natural log.
With `M51G` the binding fitness was -0.325 natural log.
For `V35C`, the binding fitness was -0.394 natural log.
With `E33A` the binding fitness was -0.23 natural log.

Block 4
Target: ABI1, truncated, D143A, DHFR fusion (Arabidopsis thaliana)
Method: DHFR PCA, deep sequencing
Medium: yeast
Setting: methotrexate growth selection, single substitutions
With: (+)-ABA 58 µM
Reference: wild-type fitted maximum
Reading: higher = stronger binding
Parent: PYL1, truncated, DHFR fusion (Arabidopsis thaliana); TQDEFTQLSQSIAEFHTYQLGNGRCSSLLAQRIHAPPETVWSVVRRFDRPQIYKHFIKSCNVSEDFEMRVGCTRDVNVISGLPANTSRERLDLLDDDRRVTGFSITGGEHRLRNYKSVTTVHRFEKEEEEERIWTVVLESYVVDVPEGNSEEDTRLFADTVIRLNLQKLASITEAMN
`N114M`: “relative binding score” 17.2%.
For `H110K`, “relative binding score” read 12.6%.
For `C72Q`, “relative binding score” read 79.9%.
For `A13W`, “relative binding score” read 67.9%.
`K54M`: “relative binding score” 2.78%.
Under “relative binding score”, `R132C` is recorded as 97.9%.
For `S42M`, “relative binding score” read 84.2%.
Under “relative binding score”, `F5T` is recorded as 86.9%.
Under “relative binding score”, `Q51A` is recorded as 45.2%.
Under “relative binding score”, `V142D` is recorded as 58.6%.
Under “relative binding score”, `L112T` is recorded as 1.97%.
`P146E`: “relative binding score” 11.2%.
`S150V`: “relative binding score” 56.1%.
Under “relative binding score”, `W134L` is recorded as 94.6%.
For `T135S`, “relative binding score” read 89.7%.

Excerpt of the above (block 1):
For `AACAUUUUUGUUCUUAUGGGGUGAGAAUAUAGACAGUGCCCUUGGUGCGAGGGAAGCAAUUGAAAAGGAACUUGCCCUGAGCACUCCUGGUGCAGGUCUCCACCUGCACA`, “RBNS enrichment (R)” read 0.522.
`AAGGAGACAGUGACAAUGGGCAGUGGAUAGCCCUCACUCGUGAGUGUUUAAUGUUGCAGCAAACUCACCAAGAAGGAGACAAAUGGCUGUUUCGAAUGGAAGCUUUCUCA` — result for “RBNS enrichment (R)”: 0.545.
`UACAUUUUUGCACUGAAAUCUAAAGAUGUUUUAAAAAACACUUUUCACAAAAAUAGUCCUUUGUCAUUACAUUAUUUACUCAUGUGUUUGUACAUUUUUGUAUGUUAAUU` — result for “RBNS enrichment (R)”: 0.455.
`CAAGCUGAAACACCACUGCAUCCGCGUGGCCUUAUGACCUCCUUGCCCACUCACAGAGGCUGGAGGCAGCGACACUGGAACGGAGAAGAGAGAUCUGCAUGAGGGUGAGA`: “RBNS enrichment (R)” 8.23.
For `CUGUGUCCUUUGCGUUCCUCGUUUAAGCAAAAGAAGUUAGUAGCUAAUUCUAUCACGAAUGUUCUUGUCUGUGUACAGUUUUUAGAACAUUACAAAGGAUUUGUUUGCUU`, “RBNS enrichment (R)” read 0.257.
Under “RBNS enrichment (R)”, `GGGAAGAGUGGGAAGGCCUGAGUGUGUGCAGCCUCCUCCUCUGCCCACCCAAUCCAGCCAGUUCCCUUCAGGGAGGUUGGUGUGACCUGCUGUAGGUUCACCUUUUAGGC` is recorded as 0.406.
`CGGCGGACCUGCAGAUGACCUGGAGUUCCUGAUUCAGGUCCCUGUCUGCAGCCCGGGCUGCCUGGGCCACAGCCUGCCAGUGUGGGCAGUGUGACGAAAGGCGGCCUGUA`: “RBNS enrichment (R)” 0.291.
